Assay results of several laboratories.
Each line is one published result; not all experiments were run side by side. Numbers after ± are the reported error.

For `NC12CNCCNCC(NCc3ccc(CNC(=O)CCCC(=O)NCc4ccc(-c5nncnn5)cc4)cc3)(CNCCNC1)CNCCNC2.[64Cu+2]`, the tissue uptake was 0.65 ± 0.17 %ID/g (athymic nude mice SW1222 xenograft, spleen; 12 h post injection, 24 h accumulation interval, added: huA33-TCO pretargeting).
For `CC(C)(Sc1cc[n+]([O-])cc1-c1ccc(C#N)c2ccccc12)C(=O)OC1OC(C(=O)O)C(O)C(O)C1O` (centres unmarked), the terminal half-life was 10.7 h (plasma; oral, 15 mg, mild renal impairment, fasted).
`Cn1c(=O)oc2ccc(-c3ccc(CC(C#N)NC(=O)C4CNCCCO4)c(F)c3)cc21` (centres unmarked): “subjects with TEAE” 8.3% (item: blood bilirubin increased; human; 40 mg single dose, fasted).
`CC(C)C[C@@H](NC(=O)[C@H](NC(=O)[C@H]1CCCN1)[C@H](C)O)C(=O)N[C@H](Cc1c[nH]cn1)C(=O)N[C@@H](C(=O)N[C@H](Cc1c[nH]cn1)C(=O)N[C@H](CC(N)=O)C(=O)N[C@H](CCCNC(=N)N)C(=O)N[C@H](CCCNC(=N)N)C(=O)N[C@H](CCCNC(=N)N)C(=O)N[C@H](CCCNC(=N)N)C(=O)N[C@H](CCCNC(=N)N)C(N)=O)[C@H](C)O` has an AUC(0-t) of 19800 ng·h/mL (beagle dog, plasma; oral, 50 mg/kg, single dose).
With `C[C@H](NC(=O)COC(=O)[C@H](C)NC(=O)CO)C(=O)O` the depolymerization half-life was 26.1 h (water; pH 4, 50 °C).
With `NC(=O)c1ccc(C(=O)NOCc2ccc(Sc3cccc(Cl)c3)c(C(F)(F)F)c2)cc1` the AUC(0-t) was 24500 ng·h/mL (male ICR mouse, plasma; intraperitoneal, 30 mg/kg).
With `O=c1nc(NO)ccn1[C@@H]1O[C@H](CO)[C@@H](O)[C@H]1O` the mRNA level was 0.4 fold (RT-PCR, item: CYP2C11; rat, arthritis model, liver; oral, 80 mg/kg twice daily, 5 days; baseline: untreated arthritic rats).
For `COc1ccc(/C=C/c2ccc(-c3ccc(C)cn3)nc2)cc1`, “fluorescence quantum yield” read 0.49 (dioxane; added: quinine bisulfate reference).
For `COc1ccc(/C=C/C2=[N+]3C(=C(COC(C)=O)c4c(C)cc(/C=C/c5ccc(OC)cc5)n4[B-]3(F)F)C(C)=C2)cc1`, “luminescence quantum yield” read 15 ± 2% (acetonitrile; room temperature).
The AUC of `Cc1ncc2c(n1)CN(C(=O)Nc1nc(-c3cccs3)ccc1N)C2` is reported as 13000 ng·h/mL (male beagle dog, plasma; oral, 60 mg/kg, multiple doses, once daily).
For `NC[C@@H](C(=O)Nc1ccc(-c2cn[nH]c2)cc1)c1ccccc1`, “ocular irritation score” read 0 (OECD 405, item: Iris; New Zealand White rabbit; topical, 0.1 %, 32 h, day 2; direction not given).
For `OC(CN1CCC2(CC1)CC(O)c1ccc3ccccc3c1O2)c1ccc(F)c(F)c1` (centres unmarked), the compound remaining was 16% (metabolic stability; mouse, liver microsomes; 1 h).
With `CCCC[C@@H]1NC(=O)[C@@H](NC(=O)[C@H](CCC(=O)O)NC(=O)CNC(=O)CN2CCN(CC(=O)O)CCN(CC(=O)O)CCN(CC(=O)O)CC2)CCCCNC(=O)C[C@@H](C(N)=O)NC(=O)[C@H](C(C)C)NC(=O)[C@@H]2CCCN2C(=O)[C@H](CCCNC(=N)N)NC(=O)CNC(=O)[C@H](Cc2c[nH]c3ccccc23)NC(=O)[C@H](CCCNC(=N)N)NC(=O)[C@@H](Cc2ccccc2)NC(=O)[C@H](Cc2c[nH]cn2)NC(=O)[C@H](CCC(=O)O)NC1=O` [gallium-67 labelled] the tissue ratio was 9.25 (C57 mice, B16/F1 flank melanoma; intravenous, 2 h, added: blocking peptide 10 µg; baseline: tumour over lung).
With `CN1CCN(c2cc(-c3ccccc3CO)c(N(C)C(=O)C(C)(C)c3cc(C(F)(F)F)cc(C(F)(F)F)c3)cn2)CC1` the fu was under 0.03 (human plasma; unbound fraction).
With `CC(C)(O)c1ncc([S@](N)(=O)=NC(=O)Nc2c3c(cc4c2CCC4)CCC3)s1` the Cmax was 4820 ng/mL (healthy human, fasted; oral, 100 mg single dose, capsule formulation).
`O=C(NCCCN(CCCCN(CCCNC(=O)c1cccc(=O)n1[O-])C(=O)c1cccc(=O)n1[O-])C(=O)c1cccc(=O)n1[O-])c1cccc(=O)n1[O-].[89Zr+4]` gave an intact complex of 98.4 ± 2.3% (radio-TLC; PBS; 7 d, pH 7.4, 37 °C, added: Cu^2+ 10-fold excess).
`COc1cc(NC(C)=O)c2c(c1O)-c1c(OC)c(OC)cc3c1C(C2)N(C)CC3` (centres unmarked) has a remaining compound of 87.1 ± 1% (rat kidney homogenate; 5 µg/mL, 24 h, room temperature, post-preparative storage).
Under “patients with treatment-related adverse event”, `CC(C)c1cnc(-c2cc(Cl)ccc2F)cc1Nc1ccncc1C(=O)NC(CO)CO` is recorded as 0% (monotherapy, item: rash; human patients; oral, dose not given, grade 5, phase I A).
The t1/2 of `CCC/C(=C\C1=C(C(F)(F)F)C(=O)c2ccccc2C1=O)C(=O)N(CC)CC` is reported as 0.7 h (human plasma; 1 µM, 37 °C).
The half-life of `CC(C)[C@H](NC(=O)CNC(=O)[C@H](CCC(N)=O)NC(=O)[C@H](C)N)C(=O)O` is reported as 0.24 h (LC-MS/MS; human, male, plasma; intravenous, 30 mg/kg three times daily, day 1, first dose, 10 min infusion, geometric mean).
For `Nc1ccn(C[C@@H](CO)OCP(=O)(O)OCCCS(=O)(=O)CCCCCCCCCCCCCC2CCC2)c(=O)n1`, “liver exposure of CDV and CDV-PP” read “increased” (mouse CFW, male, liver; oral, dose not given, outcome increased; baseline: equimolar brincidofovir).
Under “release from nanoassemblies”, `Cc1cccc(-c2cccc(C)n2)n1.Cc1cccc(-c2cccc(C)n2)n1.[Cl-].[Cl-].[Ru+2].c1ccc(-c2ccnc3c2ccc2c(-c4ccccc4)ccnc23)cc1` is recorded as 50.3% (phosphate buffer with NaCl; pH 6.0, 37 °C, photoactivated, dialysis).
`OC1(C(F)(F)F)CCN(c2nc(Nc3ccnc(C(F)(F)F)c3)nc(-c3cccc(C(F)(F)F)n3)n2)C1` (centres unmarked): “central nervous system effect” “no effect” (Sprague-Dawley rat; oral, up to 50 mg/kg, single dose).
`Oc1ccc2ccccc2c1/N=N/c1ccc(/N=N/c2ccccc2)cc1` gave a measured concentration of 16.2 µg/L (rat whole blood QC samples; 16.0 µg/L, 4 h, room temperature, short-term stability).
`Brc1ccc(Nc2nc(NN=Cc3c[nH]c4ccccc34)nc(N3CCOCC3)n2)cc1` has a CLint of 14.9 mL/min (rat liver microsomes; in vivo extrapolated).
For `N=C(N)NCCC[C@@H]1NC(=O)[C@H](Cc2c[nH]c3ccccc23)NC(=O)[C@@H](CC2CCCCC2)NC(=O)[C@@H]2CCCN2C(=O)[C@@H](NC(=O)CCc2ccccc2)CCCNC1=O`, “apparent distributional clearance” read 0.7 ng/(min·ng/g) (C57BL/6J mice, brain; subcutaneous, 1 mg/kg, two-compartment model).
`O=C([O-])c1cccc(CN(CCN(Cc2cn(Cc3ccccc3)nn2)Cc2cccc(C(=O)[O-])n2)Cc2cn(Cc3ccccc3)nn2)n1.[64Cu+2]` — result for “radiometal bound to chelator”: 99.9% (human serum; 1 h, 37 °C, added: 64Cu).
`NS(=O)(=O)c1ccc(N2N=C(C(F)(F)F)CC2c2ccc(F)cc2F)cc1` (centres unmarked) gave a plasma concentration of 274 ± 189 ng/mL (Beagle dog, male, arthritis model, plasma; oral, 4 mg/kg single dose, day 2).
For `CN1C(=O)[C@@H](Cc2ccc(O)c(I)c2)NC(=O)CNC(=O)[C@H](Cc2ccc3ccccc3c2)NC(=O)[C@H](CCCNC(=N)N)NC(=O)[C@H]1CCCNC(=O)c1ccc(CNC(=O)CN2CCN(CC(=O)O)CCN(CC(=O)O)CCN(CC(=O)O)CC2)cc1` [lutetium-177 labelled], “total absorbed dose” read 0.058 mGy/MBq (2; human, extrapolated from mouse, kidneys).
The HPLC retention of `CC(C)C[C@H](NC(=O)[C@H](CC(C)C)NC(=O)[C@@H](NC(=O)[C@H](Cc1ccccc1)NC(=O)[C@@H](Cc1c[nH]c2ccccc12)NC(=O)[C@@H](N)CCCCN)[C@@H](c1ccccc1)c1c[nH]c2ccccc12)C(N)=O` is reported as 54.4 %B (RP-HPLC Jupiter Proteo; acetonitrile/water TFA gradient).
`O=[11C](OC(C(F)(F)F)C(F)(F)F)N1CCC(CNS(=O)(=O)c2ccc(Cl)cc2)CC1` has a radioactivity uptake of 1.58 SUV (PET; Sprague-Dawley rat, cerebellum; intravenous, dose not given, baseline).
`C=C(c1cc(F)c(C(=O)O)c(F)c1)c1cc2c(cc1C)C(C)(C)CCC2(C)C` has an HDL level of 84 ± 13.6 mg/dL (Sprague-Dawley rat, male, plasma; oral, 100 mg/kg, 3 h, sesame oil vehicle).
`OC[C@H]1O[C@@H](OCCOCCOCC[N+]2(C[B-](F)(F)F)CCOCC2)[C@H](O)[C@@H](O)[C@@H]1O` gave a half-life of 120 h (chemical stability, NMR; aqueous buffer; 2 mg/mL, pH 7.5).
With `Nc1nccc(-c2cn(C3CC3)c3ccccc23)n1` the plasma concentration was 37.2 ng/g (radiolabelled metabolite profiling; human male, plasma; oral, 110 mg, 10 h).
With `C[C@@H](C(=O)O)N(CC(=O)N(CCS)CC(N)=O)C(=O)CN(C(=O)CN(C(=O)CN(C(=O)CN(C(=O)CN(C(=O)CN(C(=O)CN(C(=O)CN(C(=O)CN(C(=O)CN(C(=O)CN(C(=O)CN(CCS)C(=O)CN1CCCNCC1)[C@@H](C)c1ccccc1)[C@@H](C)C(=O)O)[C@@H](C)C(=O)O)[C@@H](C)c1ccccc1)[C@@H](C)C(=O)O)[C@@H](C)C(=O)O)[C@@H](C)c1ccccc1)[C@@H](C)C(=O)O)[C@@H](C)C(=O)O)[C@@H](C)c1ccccc1)[C@@H](C)C(=O)O` the water solubility was at least 15 mM (distilled water).
`CCCC[C@H](NC(C)=O)C(=O)N[C@H]1CC(=O)NCCCC[C@@H](C(=O)N[C@@H](C(=O)N2CCC[C@@H]2C(N)=O)C(C)C)NC(=O)[C@H](Cc2c[nH]c3ccccc23)NC(=O)[C@H](CCCN=C(N)N)NC(=O)[C@@H](Cc2ccc3ccccc3c2)NC(=O)[C@@H]2CCCN2C1=O` gave a plasma histamine of 13.2 ng/mL (healthy dogs, plasma; subcutaneous, 2.25 mg/kg per day, day 5, 30 min post-dose, median).
`O=C(Cc1ccc(-c2ccc(OCCN3CCOCC3)cc2)cn1)NCc1ccc(F)cc1` gave a half-life of 2.3 ± 0.23 h (ICR mouse; oral, 10 mg/kg).
`Cc1cc2c(cc1C1(c3ncc(C(=O)O)cn3)CC1)C(C)(C)CCC2(C)C` gave an HDL level of 65 ± 7 mg/dL (Sprague-Dawley rat, male, plasma; oral, 100 mg/kg, 2 h, sesame oil vehicle).
The concentration of `C1=C(c2cc3c(Nc4ccc5scnc5c4)ncnc3s2)CCSC1` is reported as 5.21 ng/mL (BALB/c mouse, plasma; oral, 10 mg/kg, 6 h).
The compound remaining of `NCCCNc1nc2cc(Cl)ccc2n1Cc1ccccc1` is reported as 97% (metabolic stability; human, liver microsomes; 0.1 µM, 30 min, pH 7.4).
For `CC/C=C\C/C=C\C/C=C\C/C=C\C/C=C\CCCCOC(CC)C(=O)O` (centres unmarked), the tissue concentration was 9 µg equivalents/g tissue (radioactivity, 14C-labelled; Wistar rat, male, subcutaneous fat; oral, 100 mg/kg, 1 h).
`Cc1ccc(OCC(=O)N(Cc2cccs2)c2ccn[nH]2)cc1` gave a remaining compound of about 0.89% (male Göttingen minipig, liver microsomes; 10 µM, 60 min, added: NADPH).
The AUC(0-t) of `N#CC1(c2ccc3c(N)ncnn23)OC(COP(=O)(O)O)C(O)C1O` (centres unmarked) is reported as 247000 nmol·h/kg (LC-MS/MS; CD-1 mouse, liver; oral, 100 mg/kg of remdesivir).
For `Clc1cccc(-c2nnc(/N=C/C=C/c3ccccc3)nc2/N=C/C=C/c2ccccc2)c1Cl`, “time on rotating rod” read 80.9 ± 32.1 s (rotarod test; white albino mice, both sexes; intraperitoneal, 30 mg/kg).

For quick reference, copied from above:
For `NC12CNCCNCC(NCc3ccc(CNC(=O)CCCC(=O)NCc4ccc(-c5nncnn5)cc4)cc3)(CNCCNC1)CNCCNC2.[64Cu+2]`, the tissue uptake was 0.65 ± 0.17 %ID/g (athymic nude mice SW1222 xenograft, spleen; 12 h post injection, 24 h accumulation interval, added: huA33-TCO pretargeting).
With `CN1CCN(c2cc(-c3ccccc3CO)c(N(C)C(=O)C(C)(C)c3cc(C(F)(F)F)cc(C(F)(F)F)c3)cn2)CC1` the fu was under 0.03 (human plasma; unbound fraction).
For `NC[C@@H](C(=O)Nc1ccc(-c2cn[nH]c2)cc1)c1ccccc1`, “ocular irritation score” read 0 (OECD 405, item: Iris; New Zealand White rabbit; topical, 0.1 %, 32 h, day 2; direction not given).
The compound remaining of `NCCCNc1nc2cc(Cl)ccc2n1Cc1ccccc1` is reported as 97% (metabolic stability; human, liver microsomes; 0.1 µM, 30 min, pH 7.4).
